Assay results gathered from unrelated publications.
Compare with care: the assays were run in different laboratories.
MAP3K7: Mitogen-activated protein kinase kinase kinase 7 (MAP3K7, Homo sapiens, UniProt O43318)
Sequence of UniProt O43318 (whole entry, looked up): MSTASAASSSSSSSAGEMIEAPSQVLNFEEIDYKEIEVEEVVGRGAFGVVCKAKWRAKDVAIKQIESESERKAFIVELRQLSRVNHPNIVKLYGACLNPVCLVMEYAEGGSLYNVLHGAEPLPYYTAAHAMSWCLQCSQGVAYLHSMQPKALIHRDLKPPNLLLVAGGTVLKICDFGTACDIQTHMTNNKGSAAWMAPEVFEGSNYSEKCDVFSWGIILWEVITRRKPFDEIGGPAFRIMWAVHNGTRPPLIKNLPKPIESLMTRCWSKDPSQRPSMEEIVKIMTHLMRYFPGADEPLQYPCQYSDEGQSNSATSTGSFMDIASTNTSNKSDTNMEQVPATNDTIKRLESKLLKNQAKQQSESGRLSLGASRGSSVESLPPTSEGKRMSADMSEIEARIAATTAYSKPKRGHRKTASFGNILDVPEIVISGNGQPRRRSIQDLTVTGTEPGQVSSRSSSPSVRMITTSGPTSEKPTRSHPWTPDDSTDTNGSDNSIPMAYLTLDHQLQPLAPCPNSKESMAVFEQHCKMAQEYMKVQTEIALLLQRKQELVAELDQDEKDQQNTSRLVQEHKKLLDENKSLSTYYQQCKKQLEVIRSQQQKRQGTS
MAP3K7 with TAB1: Mitogen-activated protein kinase kinase kinase 7, with TAB1 (MAP3K7, Homo sapiens, UniProt O43318)

COc1cc(F)ccc1-c1ncnc(Nc2cccc(C[S@](C)(=N)=O)c2)n1 — remaining activity (MAP3K7; kinase activity; 10 µM, together with: 10 µM ATP): 82%
O=C1NC(=O)/C(=C/c2ccc(-c3ccc(F)cc3O)o2)S1 — remaining activity (MAP3K7; enzyme activity; 10 µM): 48%
CCOC(=O)Oc1cc(OC)cc2c1C(=O)O[C@@H](C)C/C=C/C(=O)[C@@H](O)[C@@H](OC(=O)OCC)C[C@H]1O[C@H]21 — inhibition (MAP3K7 with TAB1; kinase activity, Kinase-Glo luminescence; concentration not given): inactive
CCN1CCN(Cc2ccc(NC(=O)c3ccc(C)c(Oc4ccnc5[nH]ccc45)c3)cc2C(F)(F)F)CC1 — inhibition (MAP3K7; A-375; concentration not given): > 98%
CS(=O)(=O)Nc1cccc(-c2csc(NC(=O)CSc3nc4nccnc4c(=O)n3CCc3ccccc3)n2)c1 — inhibition (MAP3K7 with TAB1; 10 µM): -12%
CC(C)(C)c1nc2c(s1)c1nc(N)ncc1c1ccc(NS(=O)(=O)c3c(F)cccc3F)c(F)c12 — remaining activity (MAP3K7 with TAB1; kinase activity, radiometric 33PanQinase; 1 µM; baseline: DMSO): 86%
CCOC(=O)O[C@H]1C[C@H]2O[C@@H]2c2cc(OC)cc(O)c2C(=O)O[C@@H](C)C/C=C/C(=O)[C@H]1O — inhibition (MAP3K7 with TAB1; kinase activity, Kinase-Glo luminescence; concentration not given): inactive
COc1cc(-c2cc(-c3ccc(N4CCNCC4)cc3)cnc2C)cc(OC)c1OC — inhibition (MAP3K7 with TAB1; kinome profiling; 1 µM): 2%
CNc1ncc2c(/C=C/C(=O)N3CCC(OC)CC3)nn(Cc3cccc(C(F)(F)F)c3)c2n1 — remaining activity (MAP3K7 with TAB1; inhibitor; 1 µM; baseline: control): 92%
Cn1cc(-c2cnc3ccc(NC(=O)Nc4ccc(F)c(Br)c4)cc3n2)cn1 — inhibition (MAP3K7; kinase binding, KiNativ profiling, refers to: Lys2 peptide; PANC-1 lysate; 1.25 µM): 0.5%
O=C(CSc1nc2nccnc2c(=O)n1CCc1ccccc1)Nc1nccs1 — inhibition (MAP3K7 with TAB1; 10 µM): -10%
Cc1cc(Nc2cc(N3CCN(C)CC3)nc(Sc3ccc(NC(=O)C4CC4)cc3)n2)[nH]n1 — remaining activity (MAP3K7; kinase activity, KinaseProfiler; 0.03 µM, species human; baseline: control): 93%

Some of these lines once more:
COc1cc(F)ccc1-c1ncnc(Nc2cccc(C[S@](C)(=N)=O)c2)n1 — remaining activity (MAP3K7; kinase activity; 10 µM, together with: 10 µM ATP): 82%
